{"data": "Measured values of several laboratories", "target": "Adenosine receptor A2a (ADORA2A, Homo sapiens, UniProt P29274)", "note": "Protocols differ between the studies behind these lines. ± gives the spread as reported."}
{"SMILES": "CNC(=O)[C@@]12C[C@@H]1[C@@H](n1cnc3c(NCCc4ccc(O)c(OC)c4)nc(C#Cc4ccc(Cl)s4)nc31)[C@H](O)[C@@H]2O", "test": "binding, radioligand binding", "conditions": "concentration not given", "quantity": "activity class", "result": "inactive"}
{"SMILES": "Cc1csc(-c2coc3cc(OCC(=O)O)cc(C)c3c2=O)n1", "test": "radioligand displacement", "conditions": "together with: [3H]ZM241385", "quantity": "ligand efficiency", "result": 0.33}
{"SMILES": "CN(C(=O)n1cnc(-c2ccc[n+]([O-])c2)c1)C1CCCCC1", "conditions": "concentration not given", "quantity": "inhibition", "result": "-2.48%"}
{"SMILES": "CSc1ccc(CNc2nc3ccccc3n3cnnc23)cc1", "test": "binding, radioligand competition", "conditions": "30 µM, together with: [3H]ZM241385", "quantity": "displacement", "result": "20 ± 4%"}
{"SMILES": "COc1cccc(Cn2c(=O)n(CC3CC3)c(=O)c3c2nc2cc(OC)ccn23)c1", "test": "radioligand binding", "test system": "CHO cell membranes", "conditions": "1 µM, together with: [3H]ZM241385", "quantity": "displacement", "result": "24%"}
{"SMILES": "CCN1/C(=C/C(C)=O)Sc2ccc(F)cc21", "test": "binding", "conditions": "10 µM", "quantity": "inhibition", "result": "22.2%"}
{"SMILES": "Cc1ccc(C(=O)Nc2nc3ccccc3[nH]2)cc1", "test": "binding, radioligand competition", "conditions": "10 µM, together with: [3H]ZM241385", "quantity": "displacement", "result": "21 ± 4%"}
{"SMILES": "CSc1nc2nc3c(c(O)n2n1)CN(Cc1ccccc1)CC3", "test": "radioligand displacement", "conditions": "together with: [3H]ZM241385", "quantity": "ligand efficiency", "result": 0.36}
{"SMILES": "Cc1ccc(C(=O)Nc2nc3ccccc3[nH]2)cc1C", "test": "binding, radioligand competition", "conditions": "10 µM, together with: [3H]ZM241385", "quantity": "displacement", "result": "16 ± 4%"}
{"SMILES": "COc1ccc(N2CC(C(=O)NC(Cc3ccccc3)C(=O)O)CC2=O)cc1 (stereo not shown)", "test": "radioligand displacement", "conditions": "together with: [3H]ZM241385", "quantity": "ligand efficiency", "result": 0.27}
{"note": "Excerpt of the above:"}
{"SMILES": "COc1ccc(N2CC(C(=O)NC(Cc3ccccc3)C(=O)O)CC2=O)cc1 (stereo not shown)", "test": "radioligand displacement", "conditions": "together with: [3H]ZM241385", "quantity": "ligand efficiency", "result": 0.27}
